Measurements of several laboratories.
± marks the error that the study gave. ≈ marks a conversion by molar mass, not a printed value.

| SMILES | test | system | conditions | scale | measurement | result |
| --- | --- | --- | --- | --- | --- | --- |
| CCNc1cc2[o+]c3cc(NCC)c(C)cc3c(-c3ccccc3C(=O)OCCOCC[18F])c2cc1C |  | rat, thyroid/trachea | 120 min |  | tissue uptake | 1.08 ± 0.12 %ID/g |
| NS(=O)(=O)NCCc1ccccc1F | rotarod impairment | mouse | intraperitoneal |  | TD50 | 170 ± 5 mg/kg |
| C[S+]1CC[S+]2CC[P+](CO)(CO)[Re-2]12(=[C]=O)(=[C]=O)=[C]=O.[Br-] (centres unmarked) |  | saturated aqueous cysteine | 6 months, 25 °C |  | chemical stability | stable |
| C=C1C(=O)O[C@@H]2C[C@H](C)[C@@H]3C[C@H](O[Si](C)(C)C)[C@H](O[Si](C)(C)C)[C@@]3(C)C[C@H]12 | propidium iodide flow cytometry | primary splenocytes, BALB/c mouse | 48 h, 10% fetal calf serum |  | CC50 | 27.3 ± 0.4 µg/mL (≈ 66.5 µM) |
| COC(=O)C[C@](O)(CCCC(C)(C)OC(C)=O)C(=O)O[C@@H]1C(OC)=C[C@]23CCCN2CCc2cc4c(cc2[C@H]13)OCO4 |  | CD1 mouse, stomach | subcutaneous, 1 mg/kg, 8 h |  | tissue concentration | 8.95 ng/mL |
| COc1cc2ncnc(Oc3cccc(N[11C](=O)Nc4cc(C(C)(C)C(F)(F)F)on4)c3)c2cc1OC | radio-HPLC | female Balb/c nude mice, urine | intravenous, 5 min | baseline: radioactivity | metabolites in urine | 88.1% |
| O=S(=O)(O)C(F)(F)C(F)(F)OC(F)(C(F)(F)F)C(F)(F)OC(F)C(F)(F)F (centres unmarked) |  | human, exposed residents, serum | November 2017, 5 months after discharge |  | median concentration | 4.14 ng/mL |
| CC(C)[C@H](NC(=O)CNC(=O)[C@H](CCC(N)=O)NC(=O)[C@H](C)N)C(=O)O |  | human | 20 mg/kg, 3 days, thrice daily dosing |  | subjects given concomitant medication | 0% |
| CCCCCCCCCCCCC(=O)O.O=C1CCCC2C3CCCN4CCCC(CN12)C34 (centres unmarked) | electrical conductivity | water | 293.15 K, critical micelle concentration |  | standard Gibbs energy of micellization | -7.04 kcal/mol |
| CC[C@H](C)C(=O)N1CCC(NC(=O)Nc2ccc(OC(F)(F)F)c(F)c2)CC1 |  | human, plasma | oral, 8 mg, single dose, healthy volunteers |  | Tmax | 1.25 h |
| C/C=C/C=C/C/C=C/CCCCCCCc1cccc(O)c1O |  | female Kunming mice, tumour-bearing, liver | intravenous, 10 mg/kg, 0.5 h |  | tissue concentration | 30400 ± 3170 ng/g |
| CC(C)C[C@H](NC(=O)CNC(=O)[C@H](CCCCN)NC(=O)[C@@H](N)CC(C)C)C(=O)N[C@@H](C)C(=O)N[C@@H](C)C(=O)N[C@@H](CCCCN)C(=O)N[C@@H](CC(C)C)C(=O)N[C@@H](CC(C)C)C(=O)NCC(=O)N[C@@H](CC(C)C)C(=O)N[C@@H](CCCCN)C(=O)N[C@@H](CCCCN)C(=O)O |  | rabbit erythrocytes | 128 µM, 4 h, 37 °C |  | haemolysis | 6.57% |
| Cc1ccc(OCC(=O)N(Cc2cccs2)c2ccn[nH]2)cc1 |  | pregnant Crl:CD(SD) rat | oral gavage, 125, 300, 1000 mg/kg/day, gestation days 6-20, maternal and embryo-fetal toxicity |  | NOAEL | 1000 mg/kg/day |
| CC[C@H](C)[C@H](NC(=O)[C@H](CC(C)C)NC(=O)[C@H]1CCCN1C(=O)[C@@H](CO)NC(=O)[C@H](N)CC(C)C)C(=O)N[C@@H](Cc1ccccc1)C(=O)N[C@H](C(=O)N[C@H](C(=O)N[C@H](C(=O)N1CCC[C@H]1C(=O)N[C@@H](CC(=O)O)C(=O)N[C@@H](C(=O)O)[C@H](C)O)[C@@H](C)O)[C@@H](C)O)C(C)C | flow cytometry | C57BL/6 mouse, footpad tumour, tumour and lymph nodes | dose not given | baseline: negative control | CCR7+ dendritic cells | no effect |
| CCN(Cc1ccccc1)C(=O)CCc1nc(CN2CCN(C(=O)Cc3ccc(OC)c(OC)c3)CC2)no1 | rotarod fatigue test | mouse, chronic constriction injury | intraperitoneal |  | TD50 | 88 ± 1.41 mg/kg |
| [2H]C([2H])([2H])C([2H])([2H])C([2H])([2H])OC(C(=O)OC1CCNCC1)(c1ccccc1)c1ccccc1 |  | healthy Japanese male subjects, plasma | oral, 8 mg, day 1, mean |  | tmax | 6 h |

| SMILES | test | system | conditions | scale | measurement | result |
| --- | --- | --- | --- | --- | --- | --- |
| O=c1cc(-c2ccccc2)oc2c(Br)c(O)c(O)c(O)c12 |  | C57BL/6 mouse, plasma | intravenous, 10 mg/kg |  | Ctrough | 186 ± 176 ng/mL |
| CC[C@H](C)[C@@H]1NC(=O)[C@H](CCCCN)NC(=O)[C@H](CCCCN)NC(=O)[C@H](Cc2c[nH]c3ccccc23)NC(=O)[C@H](CC(C)C)NC(=O)[C@@H]2CCCN2C(=O)[C@H](C)NC(=O)CNC(=O)CNC(=O)[C@H](CO)NC(=O)CNC(=O)CNC(=O)[C@H](CO)NC(=O)[C@H](CCC(=O)O)NC(=O)[C@H](CC(C)C)NC(=O)[C@H](CC(C)C)NC(=O)[C@H](CCCCN)NC(=O)[C@H](CCCCN)NC(=O)[C@H]([C@@H](C)CC)NC(=O)[C@H]([C@@H](C)CC)NC(=O)[C@H](CCCCN)NC(=O)[C@H](CCCCN)NC(=O)[C@H](Cc2c[nH]c3ccccc23)NC(=O)[C@H](CC(C)C)NC(=O)[C@@H]2CCCN2C(=O)CNC(=O)CNC(=O)[C@@H](NC(=O)CN)CSSC[C@@H](C(N)=O)NC(=O)[C@H](CC(C)C)NC(=O)[C@H](CCCCN)NC(=O)[C@H](CCCCN)NC(=O)[C@H]([C@@H](C)CC)NC1=O | hemolysis | uninfected human erythrocytes | 1 h |  | HC10 | 8.4 ± 0.8 µM |
| CCC(CC)OC1C=C(C(=O)OC(C)OC(=O)C(N)C(C)C)CC(NC(=N)N)C1NC(C)=O (mixture of isomers) |  | mice, plasma | IV, 1 mg/kg, 24 h |  | AUC(0-24 h) | 641 ± 52 ng·h/mL |
| CN[C@](C)(C[18F])C(=O)O |  | SCID mouse A549 xenograft, heart | 60 min post injection |  | tissue uptake | 2.8 ± 0.6 %ID/g |
| N=C(N)NCc1ccc(C(=O)NCCCC[C@H](NC(=O)N[C@@H](CCC(=O)O)C(=O)O)C(=O)O)cc1[131I] |  | SCID mouse, PC-3 xenografts, blood | 4 h |  | tissue uptake | 0.14 ± 0.06 %ID/g |
| O=C(O)CCCN1CCN2CCN(CC1)CC(=O)[O][Al]([18F])[O]C(=O)C2 |  | Sprague-Dawley rat, normal, blood | iv, 60 min |  | blood uptake | 1.6 ± 0.3 %ID |
| CN(C)C(CNC(=O)Nc1cc(C(F)(F)F)ccc1N1CCOCC1)c1ccncc1 (centres unmarked) |  | mouse, serum | intraperitoneal, 360 mg/kg single dose |  | blood urea nitrogen | 175 mg/dL |
| CC(C)[C@H](NC(=O)CNC(=O)[C@H](CCC(N)=O)NC(=O)[C@H](C)N)C(=O)O |  | healthy male volunteers | intravenous, 90 mg/kg/h, 2 h, with: LPS 2 ng/kg |  | subjects with any AE | 37.5% |
| CSCC[C@@H]1NC(=O)[C@@H]2CSSC[C@H](NC(=O)[C@H](CO)NC(=O)[C@H](C)N)C(=O)N[C@@H](CCCNC(=N)N)C(=O)N[C@@H]([C@@H](C)O)C(=O)N3CCC[C@H]3C(=O)N[C@@H](CCCCN)C(=O)N[C@@H](CC(=O)O)C(=O)N[C@H]3CSSC[C@H](NC(=O)[C@H](CCCCN)NC(=O)[C@H](CCCNC(=N)N)NC(=O)[C@H](CC(N)=O)NC1=O)C(=O)N[C@@H](CCCCN)C(=O)N[C@H]1CSSC[C@H](NC(=O)[C@@H]4CCCN4C(=O)[C@H](CC(=O)O)NC(=O)[C@H](C)NC3=O)C(=O)N[C@@H](C)C(=O)N[C@@H](CCCCN)C(=O)N[C@@H](CCC(=O)O)C(=O)N[C@@H]([C@@H](C)O)C(=O)NCC(=O)N[C@@H](CSSC[C@@H](C(N)=O)NC(=O)[C@H](CCCNC(=N)N)NC(=O)[C@H](CC(N)=O)NC1=O)C(=O)N1CCC[C@H]1C(=O)N[C@@H](Cc1ccc(O)cc1)C(=O)NCC(=O)N[C@@H](CCCCN)C(=O)N2 |  | DA rat, pristane-induced arthritis, serum | subcutaneous, 0.1 mg/kg every other day, end of 21-day trial |  | globulin | 1.28 g/dL |
| CCOC(=O)[C@@H]1Cc2c(cc([N+](=O)[O-])cc2[N+](=O)[O-])[C@H](O)[C@]12C(=O)Nc1ccc(Br)cc12 | metabolic stability | human, liver microsomes |  |  | half-life | 0.775 h |
| CC(C)[C@H](NC(=O)[C@@H](NC(=O)[C@H](CCCNC(=N)N)NC(=O)[C@H](CCCNC(=N)N)NC(=O)[C@H](CCCNC(=N)N)NC(=O)[C@H](CCC(N)=O)NC(=O)[C@H](CCCNC(=N)N)NC(=O)[C@H](CCCNC(=N)N)NC(=O)[C@H](CCCCN)NC(=O)[C@H](CCCCN)NC(=O)[C@H](CCCNC(=N)N)NC(=O)CN)[C@@H](C)O)C(=O)N[C@H](C(=O)N[C@@H](CO)C(=O)N1CCC[C@H]1C(=O)O)[C@@H](C)O |  | mouse ICR | intranasal |  | LD50 | 454 mg/kg |
| CCN(CC)CCOc1ccc(-c2nnn(Cc3ccc(OC)cc3)c2N)cc1 |  | Sprague-Dawley rat, male | oral, 20 mg/kg |  | oral bioavailability | 54.9% |
| CC[C@@H]1C[C@]1(NC(=O)[C@@H]1C[C@@]2(CN1C(=O)[C@@H](NC(=O)[C@@H](NC(=O)[C@@H]1CCCCN1C(C)C)C1CCCCC1)C(C)(C)C)C(C)(C)C21CCC1)C(=O)NS(=O)(=O)N1CCCC1 | item: Nausea | healthy human | oral, 10 mg, with: ritonavir 100 mg |  | subjects with adverse event | 0% |
| COc1ccc(N2CCOCC2)c2sc(NC(=O)c3ccnc(CN4CCCC4)c3)nc12 |  | Wistar rat, plasma (total) | oral, 15 mg/kg/day, 14 days |  | steady-state plasma concentration | 3950 ng/mL |
| CC[C@H](C)[C@H](NC(=O)[C@H](C)NC(=O)[C@H](CCCCN)NC(=O)[C@H](CC(C)C)NC(=O)[C@@H](N)Cc1ccccc1)C(=O)N[C@@H](CCCCN)C(=O)N[C@@H](CCCCN)C(=O)N[C@@H](Cc1ccccc1)C(=O)NCC(=O)N[C@@H](CCCCN)C(=O)N[C@@H](CCC(=O)O)C(=O)N[C@@H](Cc1ccccc1)C(=O)N[C@@H](CCCCN)C(=O)N[C@@H](CCCCN)C(=O)N[C@H](C(=O)NCC(=O)N[C@@H](C)C(=O)N[C@@H](CCCCN)C(=O)N[C@@H](CC(C)C)C(=O)N[C@@H](CCCCN)C(=O)O)[C@@H](C)CC |  | BALB/c mice |  | baseline: compound over colistin | LD50 ratio | 5 |
| C#Cc1c(F)ccc2cc(O)cc(-c3ncc4c(N5CC6CCC(C5)N6C(=O)/C(C)=C(/C)C(=O)OCCCC)nc(OC[C@@]56CCCN5C[C@H](F)C6)nc4c3F)c12 | chemical stability | simulated intestinal fluid | 1 µM, 30 min |  | compound remaining | 93.8% |
